Assay results collected from several papers.
Protocols differ between the studies behind these lines. ± gives the spread as reported.
PLK1: Serine/threonine-protein kinase PLK1 (PLK1, Homo sapiens, UniProt P53350)
UniProt P53350, sequence (whole entry, looked up): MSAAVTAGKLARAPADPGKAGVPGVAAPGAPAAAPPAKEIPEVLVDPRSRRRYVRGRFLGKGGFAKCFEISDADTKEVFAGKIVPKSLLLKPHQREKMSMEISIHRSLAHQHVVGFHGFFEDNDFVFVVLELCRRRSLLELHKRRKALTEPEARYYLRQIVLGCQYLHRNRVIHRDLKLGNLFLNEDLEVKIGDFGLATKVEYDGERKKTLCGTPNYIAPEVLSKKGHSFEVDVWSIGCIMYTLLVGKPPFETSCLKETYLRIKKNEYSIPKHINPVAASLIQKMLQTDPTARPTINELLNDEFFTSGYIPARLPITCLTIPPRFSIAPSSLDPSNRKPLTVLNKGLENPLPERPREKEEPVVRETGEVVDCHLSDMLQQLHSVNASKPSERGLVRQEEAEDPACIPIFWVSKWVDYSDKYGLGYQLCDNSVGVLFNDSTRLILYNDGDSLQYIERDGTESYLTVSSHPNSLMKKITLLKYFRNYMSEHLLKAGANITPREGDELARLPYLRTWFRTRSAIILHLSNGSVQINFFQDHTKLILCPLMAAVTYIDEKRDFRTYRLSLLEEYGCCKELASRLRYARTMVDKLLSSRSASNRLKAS
UCHL1: Ubiquitin carboxyl-terminal hydrolase isozyme L1 (UCHL1, Homo sapiens, UniProt P09936)
UniProt P09936, sequence (whole entry, looked up): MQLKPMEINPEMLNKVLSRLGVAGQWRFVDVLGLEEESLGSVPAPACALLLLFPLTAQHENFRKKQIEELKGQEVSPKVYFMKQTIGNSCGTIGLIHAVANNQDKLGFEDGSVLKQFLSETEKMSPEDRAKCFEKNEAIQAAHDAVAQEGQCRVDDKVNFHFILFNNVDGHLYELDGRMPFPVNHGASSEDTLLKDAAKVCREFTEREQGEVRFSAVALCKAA

SMILES | target | assay | system | conditions | scale | measurement | result
CC(=O)N[C@@H](Cc1c[nH]c2ccccc12)C(=O)N[C@@H](CC(=O)O)C(=O)N1CCC[C@H]1C(=O)N1CCC[C@H]1C(=O)N[C@@H](CC(C)C)C(=O)N[C@@H](Cc1c[nH]cn1)C(=O)N[C@@H](CO)C(=O)N[C@H](C(=O)N[C@@H](C)C(N)=O)[C@@H](C)OP(=O)(O)O | PLK1 | polo-box domain binding, isothermal titration calorimetry | – | concentration not given, 25 °C | – | binding enthalpy | -18.6 ± 0.14 kcal/mol
O=C(NC1CCC1)c1ccc2nc(-c3cccc(NS(=O)(=O)NCCN4CCCCC4)c3)cn2c1 | PLK1 | enzyme activity | – | 10 µM | – | remaining activity | 96%
CSCC[C@H](NC(C)=O)C(=O)N[C@@H](CC(=O)O)C(=O)N1CCC[C@H]1C(=O)N1CCC[C@H]1C(=O)N[C@@H](CC(C)C)C(=O)N[C@@H](Cc1c[nH]cn1)C(=O)N[C@@H](CO)C(=O)N[C@H](C(=O)N[C@@H](C)C(N)=O)[C@@H](C)OP(=O)(O)O | PLK1 | polo-box domain binding, isothermal titration calorimetry | – | concentration not given, 25 °C | – | binding stoichiometry | 0.98
COc1cc(F)ccc1-c1ncnc(Nc2cccc(C[S@](C)(=N)=O)c2)n1 | PLK1 | kinase activity | – | 10 µM, with: 10 µM ATP | – | remaining activity | 105%
Cc1cc(Nc2cc(N3CCN(C)CC3)nc(Sc3ccc(NC(=O)C4CC4)cc3)n2)[nH]n1 | PLK1 | kinase activity, KinaseProfiler | – | 0.03 µM, species human | relative to: control | remaining activity | 81%
Cc1ncsc1-c1ccc([C@H](C)NC(=O)[C@@H]2C[C@@H](O)CN2C(=O)[C@@H](NC(=O)CCCCCCCCC(=O)N(CCO)CCCOc2ccc3c(Nc4cc(CC(=O)Nc5cccc(F)c5)[nH]n4)ncnc3c2)C(C)(C)C)cc1 | PLK1 | degradation, Western blot | PC-3 and HPAF-II | 1 µM, 24 h | – | protein level | no effect
CC(=Cc1ccccc1)C=C(C#N)C(=O)Nc1ccc2c(c1)OCCO2 | UCHL1 | covalent, intact protein LC-MS | – | 12.5 µM | – | labelling | 14.3%
O=C1NC(=O)/C(=C/c2ccc(-c3ccc(F)cc3O)o2)S1 | PLK1 | enzyme activity | – | 10 µM | – | remaining activity | 90%
C=CC(=O)Nc1cc(S(=O)(=O)N(C)C)cc(C)c1C | UCHL1 | covalent, intact protein LC-MS | – | 12.5 µM | – | labelling | 11.8%
CC[C@@H]1[C@H](F)C(=O)N[C@@H]1COc1nccc2cc(C(N)=O)c(OC)cc12 | PLK1 | ATP-site probe binding, ActivX profiling | THP-1 cell lysate | 0.2 mM, Lys2 site | – | inhibition | -0.18%

A few entries again:
SMILES | target | assay | system | conditions | scale | measurement | result
Cc1ncsc1-c1ccc([C@H](C)NC(=O)[C@@H]2C[C@@H](O)CN2C(=O)[C@@H](NC(=O)CCCCCCCCC(=O)N(CCO)CCCOc2ccc3c(Nc4cc(CC(=O)Nc5cccc(F)c5)[nH]n4)ncnc3c2)C(C)(C)C)cc1 | PLK1 | degradation, Western blot | PC-3 and HPAF-II | 1 µM, 24 h | – | protein level | no effect
